Published values collected from several papers.
Lines come from different studies, so protocols differ. Several values in a cell are separate wells, animals, samples, runs or records. Numbers after ± are the reported error.
BCHE: Cholinesterase (BCHE, Homo sapiens, UniProt P06276)
Oprk1: Kappa-type opioid receptor (Oprk1, Mus musculus, UniProt P33534)
OPRM1: Mu-type opioid receptor (OPRM1, Homo sapiens, UniProt P35372)
OPRK1: Kappa-type opioid receptor (OPRK1, Homo sapiens, UniProt P41145)
ACHE: Acetylcholinesterase (ACHE, Homo sapiens, UniProt P22303)
inhA: Enoyl-[acyl-carrier-protein] reductase [NADH] (inhA, Mycobacterium tuberculosis, UniProt P9WGR1)
Muscarinic acetylcholine receptor: Muscarinic acetylcholine receptor (Xenopus laevis, UniProt A0A8J0U760)
Oprm1: Mu-type opioid receptor (Oprm1, Rattus norvegicus, UniProt P33535)
Neuronal acetylcholine receptor; alpha3/beta2: Neuronal acetylcholine receptor; alpha3/beta2 (Rattus norvegicus, UniProt P04757+P12390)

Amino acid sequences for entries named in this document (tags omitted). Chains listed by the source or under a name are the forms on record and can include a tag or linker. Residues count along the entry.
UniProt P33534, whole entry: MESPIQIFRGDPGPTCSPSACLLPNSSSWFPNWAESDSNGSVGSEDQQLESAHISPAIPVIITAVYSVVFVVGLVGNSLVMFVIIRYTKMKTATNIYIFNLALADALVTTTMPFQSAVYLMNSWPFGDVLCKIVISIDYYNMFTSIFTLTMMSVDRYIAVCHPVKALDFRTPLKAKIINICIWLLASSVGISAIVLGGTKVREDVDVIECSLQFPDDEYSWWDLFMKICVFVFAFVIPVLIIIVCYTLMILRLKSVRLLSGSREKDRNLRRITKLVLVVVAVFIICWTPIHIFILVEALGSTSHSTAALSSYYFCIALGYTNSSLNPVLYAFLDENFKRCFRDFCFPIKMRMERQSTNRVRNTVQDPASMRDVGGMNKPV
UniProt P41145, whole entry: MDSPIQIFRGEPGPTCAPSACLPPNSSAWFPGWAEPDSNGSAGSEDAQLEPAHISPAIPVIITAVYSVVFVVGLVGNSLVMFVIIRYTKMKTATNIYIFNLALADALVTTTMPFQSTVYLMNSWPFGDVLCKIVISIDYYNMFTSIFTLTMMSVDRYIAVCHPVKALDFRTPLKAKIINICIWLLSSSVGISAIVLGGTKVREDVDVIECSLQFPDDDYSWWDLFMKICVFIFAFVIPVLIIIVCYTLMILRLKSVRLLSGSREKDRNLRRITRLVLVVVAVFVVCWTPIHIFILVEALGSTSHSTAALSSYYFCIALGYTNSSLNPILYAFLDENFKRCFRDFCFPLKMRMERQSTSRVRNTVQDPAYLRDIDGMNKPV
UniProt P22303, whole entry, looked up: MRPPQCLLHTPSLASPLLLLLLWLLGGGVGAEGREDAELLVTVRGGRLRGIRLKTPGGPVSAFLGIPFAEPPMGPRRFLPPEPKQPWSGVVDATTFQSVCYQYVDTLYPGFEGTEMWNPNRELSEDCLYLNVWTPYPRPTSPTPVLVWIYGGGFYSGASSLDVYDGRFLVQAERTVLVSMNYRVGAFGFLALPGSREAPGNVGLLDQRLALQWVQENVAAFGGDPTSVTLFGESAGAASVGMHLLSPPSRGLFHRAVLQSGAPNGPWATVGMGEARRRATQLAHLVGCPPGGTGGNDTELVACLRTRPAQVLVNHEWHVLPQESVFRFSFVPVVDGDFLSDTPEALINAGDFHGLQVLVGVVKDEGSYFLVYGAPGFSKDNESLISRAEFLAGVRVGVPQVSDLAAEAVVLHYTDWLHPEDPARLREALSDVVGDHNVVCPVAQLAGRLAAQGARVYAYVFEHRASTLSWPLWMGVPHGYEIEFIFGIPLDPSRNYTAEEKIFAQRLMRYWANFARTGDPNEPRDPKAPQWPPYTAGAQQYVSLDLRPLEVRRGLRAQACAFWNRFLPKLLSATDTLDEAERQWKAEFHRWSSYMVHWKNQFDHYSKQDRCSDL
UniProt P33535, whole entry: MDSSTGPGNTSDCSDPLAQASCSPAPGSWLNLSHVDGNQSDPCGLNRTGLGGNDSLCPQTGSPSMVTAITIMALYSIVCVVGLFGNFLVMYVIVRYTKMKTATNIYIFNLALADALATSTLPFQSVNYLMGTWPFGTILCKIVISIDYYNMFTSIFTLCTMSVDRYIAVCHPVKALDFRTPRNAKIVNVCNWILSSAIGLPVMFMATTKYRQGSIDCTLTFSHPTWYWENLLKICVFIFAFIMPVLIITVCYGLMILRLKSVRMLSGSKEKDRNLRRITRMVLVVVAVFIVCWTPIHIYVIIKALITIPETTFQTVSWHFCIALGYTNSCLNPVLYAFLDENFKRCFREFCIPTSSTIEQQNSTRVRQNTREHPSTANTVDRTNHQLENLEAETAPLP
UniProt P04757, 26-499 limits assumed: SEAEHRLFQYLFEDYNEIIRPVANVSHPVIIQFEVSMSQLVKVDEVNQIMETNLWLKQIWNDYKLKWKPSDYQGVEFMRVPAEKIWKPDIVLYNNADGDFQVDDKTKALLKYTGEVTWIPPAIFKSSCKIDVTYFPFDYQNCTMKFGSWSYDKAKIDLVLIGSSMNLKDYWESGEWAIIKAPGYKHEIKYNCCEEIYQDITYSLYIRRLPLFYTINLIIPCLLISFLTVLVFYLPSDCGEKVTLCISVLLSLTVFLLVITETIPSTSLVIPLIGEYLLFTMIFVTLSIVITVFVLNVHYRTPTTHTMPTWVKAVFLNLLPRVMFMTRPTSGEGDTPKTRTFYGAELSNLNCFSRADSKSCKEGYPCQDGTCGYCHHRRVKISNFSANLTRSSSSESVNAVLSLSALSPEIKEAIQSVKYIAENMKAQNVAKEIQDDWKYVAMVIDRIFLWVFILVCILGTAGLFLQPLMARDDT
UniProt P12390, 25-500 limits assumed: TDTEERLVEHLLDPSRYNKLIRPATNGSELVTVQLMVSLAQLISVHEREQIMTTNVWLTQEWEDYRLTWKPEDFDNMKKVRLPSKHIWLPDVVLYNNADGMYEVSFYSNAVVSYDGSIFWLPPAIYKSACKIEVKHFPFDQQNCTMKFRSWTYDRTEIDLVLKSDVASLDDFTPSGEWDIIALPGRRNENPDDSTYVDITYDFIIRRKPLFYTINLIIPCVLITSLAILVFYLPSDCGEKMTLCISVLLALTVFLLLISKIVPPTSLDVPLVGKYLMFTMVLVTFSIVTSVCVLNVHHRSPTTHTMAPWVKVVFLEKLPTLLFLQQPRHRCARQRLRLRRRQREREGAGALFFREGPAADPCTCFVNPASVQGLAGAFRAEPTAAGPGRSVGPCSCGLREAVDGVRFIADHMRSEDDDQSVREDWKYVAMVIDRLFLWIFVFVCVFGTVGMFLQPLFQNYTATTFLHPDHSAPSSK
UniProt Q8T629, 1-507 V81I: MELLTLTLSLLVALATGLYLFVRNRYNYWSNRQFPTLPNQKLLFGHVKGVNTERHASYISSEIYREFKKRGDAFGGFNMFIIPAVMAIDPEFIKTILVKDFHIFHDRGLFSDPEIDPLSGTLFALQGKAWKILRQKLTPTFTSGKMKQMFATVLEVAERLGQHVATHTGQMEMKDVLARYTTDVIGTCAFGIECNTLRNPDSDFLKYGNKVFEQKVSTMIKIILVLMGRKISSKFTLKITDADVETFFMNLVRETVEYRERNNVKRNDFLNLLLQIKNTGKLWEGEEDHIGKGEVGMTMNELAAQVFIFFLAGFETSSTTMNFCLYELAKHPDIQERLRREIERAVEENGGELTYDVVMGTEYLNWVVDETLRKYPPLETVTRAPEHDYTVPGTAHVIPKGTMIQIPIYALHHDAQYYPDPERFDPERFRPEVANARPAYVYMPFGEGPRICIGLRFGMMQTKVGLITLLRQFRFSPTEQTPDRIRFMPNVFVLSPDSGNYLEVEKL
UniProt P35869, whole entry, looked up: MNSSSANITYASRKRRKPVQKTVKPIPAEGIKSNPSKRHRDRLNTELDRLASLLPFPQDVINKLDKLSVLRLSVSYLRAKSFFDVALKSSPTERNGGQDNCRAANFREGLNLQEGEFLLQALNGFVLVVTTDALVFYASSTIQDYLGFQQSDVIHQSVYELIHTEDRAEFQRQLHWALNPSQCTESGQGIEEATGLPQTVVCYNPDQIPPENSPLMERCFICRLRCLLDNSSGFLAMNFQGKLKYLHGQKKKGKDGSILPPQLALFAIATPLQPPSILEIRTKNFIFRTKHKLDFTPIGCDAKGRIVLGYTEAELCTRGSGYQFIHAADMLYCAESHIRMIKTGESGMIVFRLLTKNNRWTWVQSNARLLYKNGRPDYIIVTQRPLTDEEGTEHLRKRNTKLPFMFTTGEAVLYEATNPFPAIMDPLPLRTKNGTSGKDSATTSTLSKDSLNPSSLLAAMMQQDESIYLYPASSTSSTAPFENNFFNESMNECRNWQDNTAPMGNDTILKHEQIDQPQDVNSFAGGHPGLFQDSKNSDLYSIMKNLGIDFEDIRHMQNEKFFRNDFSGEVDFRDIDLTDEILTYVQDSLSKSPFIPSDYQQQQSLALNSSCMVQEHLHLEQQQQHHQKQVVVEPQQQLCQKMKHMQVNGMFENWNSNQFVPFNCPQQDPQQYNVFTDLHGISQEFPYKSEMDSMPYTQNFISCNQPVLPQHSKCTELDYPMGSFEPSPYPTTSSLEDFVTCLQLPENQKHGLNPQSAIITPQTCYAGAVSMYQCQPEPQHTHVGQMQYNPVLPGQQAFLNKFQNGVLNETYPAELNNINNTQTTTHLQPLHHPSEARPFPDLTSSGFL
UniProt P0AAP1, whole entry: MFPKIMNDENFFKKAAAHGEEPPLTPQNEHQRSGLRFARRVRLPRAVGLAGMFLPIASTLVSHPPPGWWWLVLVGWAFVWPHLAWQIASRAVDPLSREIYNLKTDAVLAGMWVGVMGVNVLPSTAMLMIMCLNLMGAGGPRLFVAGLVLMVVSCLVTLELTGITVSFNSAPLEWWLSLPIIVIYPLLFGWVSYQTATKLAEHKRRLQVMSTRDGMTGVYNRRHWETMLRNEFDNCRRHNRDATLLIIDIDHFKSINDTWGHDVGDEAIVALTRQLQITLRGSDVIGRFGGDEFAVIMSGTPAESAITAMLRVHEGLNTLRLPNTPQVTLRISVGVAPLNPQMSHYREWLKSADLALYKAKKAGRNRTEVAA
UniProt P52333, whole entry: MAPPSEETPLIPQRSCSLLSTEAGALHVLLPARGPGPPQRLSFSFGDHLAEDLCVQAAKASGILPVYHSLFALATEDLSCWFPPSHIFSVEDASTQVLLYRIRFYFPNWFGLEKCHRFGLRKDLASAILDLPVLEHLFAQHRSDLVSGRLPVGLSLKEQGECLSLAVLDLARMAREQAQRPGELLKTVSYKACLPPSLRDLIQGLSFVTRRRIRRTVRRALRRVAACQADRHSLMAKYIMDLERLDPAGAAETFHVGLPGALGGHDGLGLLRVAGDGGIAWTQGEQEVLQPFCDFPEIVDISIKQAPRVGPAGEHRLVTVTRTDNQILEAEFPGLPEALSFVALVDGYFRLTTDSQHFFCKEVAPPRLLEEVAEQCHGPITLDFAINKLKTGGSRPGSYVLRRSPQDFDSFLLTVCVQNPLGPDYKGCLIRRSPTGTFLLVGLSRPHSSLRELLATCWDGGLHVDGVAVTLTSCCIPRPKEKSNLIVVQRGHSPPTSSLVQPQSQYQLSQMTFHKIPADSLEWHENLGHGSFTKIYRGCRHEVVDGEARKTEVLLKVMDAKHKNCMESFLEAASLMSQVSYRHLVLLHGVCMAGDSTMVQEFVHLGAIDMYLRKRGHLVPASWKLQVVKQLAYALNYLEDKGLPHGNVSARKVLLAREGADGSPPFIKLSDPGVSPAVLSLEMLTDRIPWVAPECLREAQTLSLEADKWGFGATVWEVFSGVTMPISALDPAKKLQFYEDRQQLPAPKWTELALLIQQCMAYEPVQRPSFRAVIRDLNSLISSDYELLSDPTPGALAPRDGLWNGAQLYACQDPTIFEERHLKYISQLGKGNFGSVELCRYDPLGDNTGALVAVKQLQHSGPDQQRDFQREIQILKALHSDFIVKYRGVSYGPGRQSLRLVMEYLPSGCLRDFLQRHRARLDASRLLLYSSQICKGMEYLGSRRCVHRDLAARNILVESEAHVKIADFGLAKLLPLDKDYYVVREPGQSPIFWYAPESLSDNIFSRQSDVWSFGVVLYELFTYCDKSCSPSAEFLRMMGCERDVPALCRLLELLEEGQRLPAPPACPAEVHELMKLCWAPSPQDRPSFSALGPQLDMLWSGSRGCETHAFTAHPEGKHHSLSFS
UniProt G4NFI3, 1-514: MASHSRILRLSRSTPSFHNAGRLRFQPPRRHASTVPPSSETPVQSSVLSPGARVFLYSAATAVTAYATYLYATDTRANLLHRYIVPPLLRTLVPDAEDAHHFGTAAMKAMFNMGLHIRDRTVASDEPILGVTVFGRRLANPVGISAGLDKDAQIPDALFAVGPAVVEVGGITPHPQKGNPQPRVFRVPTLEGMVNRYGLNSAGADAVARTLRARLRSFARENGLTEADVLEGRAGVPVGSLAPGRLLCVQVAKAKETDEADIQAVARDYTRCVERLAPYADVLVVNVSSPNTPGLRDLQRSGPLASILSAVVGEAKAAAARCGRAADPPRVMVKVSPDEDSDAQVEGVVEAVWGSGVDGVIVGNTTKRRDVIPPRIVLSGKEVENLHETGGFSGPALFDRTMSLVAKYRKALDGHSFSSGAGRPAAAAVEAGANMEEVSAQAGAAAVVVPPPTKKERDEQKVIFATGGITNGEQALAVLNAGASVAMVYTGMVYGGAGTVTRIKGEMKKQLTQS
UniProt P37231, 176-477 with tags or gaps isoform 2 limits assumed: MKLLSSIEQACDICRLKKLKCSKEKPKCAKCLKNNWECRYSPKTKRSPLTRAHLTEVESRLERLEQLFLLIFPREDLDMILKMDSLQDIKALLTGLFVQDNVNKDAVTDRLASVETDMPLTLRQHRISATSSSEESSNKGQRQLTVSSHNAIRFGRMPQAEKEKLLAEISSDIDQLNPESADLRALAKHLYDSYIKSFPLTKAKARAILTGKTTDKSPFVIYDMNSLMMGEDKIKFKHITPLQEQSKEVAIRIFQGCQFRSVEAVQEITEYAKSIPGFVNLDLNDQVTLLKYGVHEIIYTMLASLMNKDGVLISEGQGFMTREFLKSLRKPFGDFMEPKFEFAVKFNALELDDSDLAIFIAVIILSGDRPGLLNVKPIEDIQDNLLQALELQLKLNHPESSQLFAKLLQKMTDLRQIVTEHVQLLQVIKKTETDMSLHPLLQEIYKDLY

nociceptin  onset time (Nociceptin receptor (OPRL1, Homo sapiens, UniProt P41146); receptor internalization; 10 µM): 5 min
O=C(O)c1ccccc1[As](=O)(O)O  maximal inhibition (SMPD1 (Homo sapiens, UniProt P17405); enzyme activity; pH 5.0, added: sphingomyelin substrate): 94.3%
CC(=O)SCC[N+](C)(C)C  substrate inhibition constant (Kss) (BCHE; substrate): 1.7 ± 0.3 mM
CNC(=O)Oc1ccc2c(c1)[C@]1(C)CCN(C)[C@@H]1N2C  ki (Ace (Anopheles gambiae, UniProt Q869C3); enzyme inhibition, inhibitor): 196000 M⁻¹ s⁻¹
methoxymethyl salvinorin B  Emax (Oprk1; receptor internalization, agonist, on-cell western; mouse receptor; relative to: control): 40 ± 1.6%
CCOc1ccc2c(c1)Oc1cc(OCC)ccc1C21OC(=O)c2ccccc21  Vmax (Cytochrome P450 6P2 (Anopheles gambiae, UniProt Q8T629, V81I); substrate; dual plasmid expression): 301 ± 12 RFU/s
C=CCN1CC[C@@]23c4c5ccc(O)c4C[C@@H]2[C@H](O)C=C[C@@H]3[C@@H]1C5  antagonist activity (OPRM1; DAMGO response, GI-1; concentration not given, added: DAMGO; relative to: naloxone): ~35%
U-69593  β-arrestin2 recruitment (OPRK1; agonist, high content imaging; U2OS expressing human KOR; 10 µM; relative to: reference agonist): 100%
Nc1ccc(O)cc1  inhibition (ACHE; enzyme activity, inhibitor; 1000 µM): 0%
Cc1cccc2c1ccc1cc(C(C)C)ccc12  fold change (AHR (Homo sapiens, UniProt P35869); reporter gene, agonist; Huh7; 30 µM, added: 0.125 mg/mL inactivated microsomes; relative to: MeBIO 0.1 µM): 25.6 and 28.5 and 26.8 and 26.2
CCN(CC)Cc1cccc(N)c1O  inhibition (ACHE; enzyme activity, inhibitor; 1000 µM): 35%
ethoxymethyl salvinorin B  bias factor (OPRK1; agonist; human receptor; relative to: larger over smaller RAi, vs dynorphin A): 1.2
CO[C@]12CC[C@@]3(C[C@@H]1[C@](C)(O)c1ccccc1C)[C@H]1Cc4ccc(O)c5c4[C@@]3(CCN1CC1CC1)[C@H]2O5  stimulation (OPRK1; G-protein activation, agonist; 10 µM; relative to: U-69593): 90 ± 3%
Cc1c(-c2ccc(-c3ccc(OC(F)(F)F)cc3)nc2)[nH]c2ccccc2c1=O  Km (cydA, with CydB subunit (Mycobacterium tuberculosis, UniProt L7N662); substrate): 7.7 ± 0.7 µM
CCCC(=O)SCC[N+](C)(C)C  substrate inhibition constant (Kss) (Butyrylcholinesterase (Sus scrofa, UniProt A0A4X1VEU5); substrate): 287 ± 35 mM
CC1(C)CCC(Cc2cc(O)c(-c3ccccc3)c(=O)[nH]2)CC1  melting temperature (inhA; thermal shift; added: NAD+ ternary complex): 55 °C
Nc1nc2c(ncn2[C@@H]2O[C@H](COP(=O)(O)OP(=O)(O)OP(=O)(O)O)[C@@H](O)[C@H]2O)c(=O)[nH]1  Km (Probable diguanylate cyclase DgcC (dgcC, Escherichia coli, UniProt P0AAP1); diguanylate cyclase activity, substrate, radio-TLC; Escherichia coli, nanodiscs; pH 7.5, 30 °C): 2 µM
CO[C@]12CC[C@@]3(C[C@@H]1[C@@](C)(O)C(C)(C)C)[C@H]1Cc4c(Cl)cc(O)c5c4[C@@]3(CCN1CC1CC1)[C@H]2O5  antagonist activity (OPRM1; antagonist; CHO; concentration not given): inhibited
CN(C(=O)Cc1cccc2occc12)[C@H]1CC[C@@]2(CCCO2)C[C@@H]1N1CCCC1  bias factor (Oprk1; agonist; mouse receptor; relative to: larger over smaller RAi, vs dynorphin A): 3.2
CN1[C@@H]2CC[C@H]1C[C@@H](OC(=O)C(CO)c1ccccc1)C2 (stereo partly shown)  Hill coefficient (Muscarinic acetylcholine receptor; binding, [3H]QNB competition; Xenopus laevis heart homogenate): 0.89
CC#C/C(=N\OC[C@H]1COCCN1)c1ccc2ncnc(Nc3ccc(OCc4cccc(F)c4)c(Cl)c3)c2c1  inhibition (JAK3 (Homo sapiens, UniProt P52333); kinase activity; 10 µM): -5.3%
CO[C@]12CC[C@@]3(C[C@@H]1[C@](C)(O)c1cccc(C)c1)[C@H]1Cc4ccc(O)c5c4[C@@]3(CCN1CC1CC1)[C@H]2O5  stimulation (Oprm1; G protein activation, agonist; 10 µM; relative to: DAMGO): 33 ± 5%
CC(C)C[C@@H]1NC(=O)[C@H](CCC(=O)O)NC(=O)[C@@H]2CCCN2C(=O)[C@H](Cc2c[nH]cn2)NC(=O)[C@H](CCCCC(=O)O)NC(=O)[C@H](CC(C)C)NC(=O)[C@H](Cc2c[nH]cn2)NC(=O)[C@@H]2CSSC[C@H](NC(=O)CN)C(=O)N[C@@H](CSSC[C@@H](C(N)=O)NC1=O)C(=O)N[C@@H](CO)C(=O)N[C@@H](Cc1c[nH]cn1)C(=O)N1CCC[C@H]1C(=O)N[C@@H](C)C(=O)N2  selectivity ratio (Chrna7 (Rattus norvegicus, UniProt Q05941); relative to: IC50 α7 over α3β2): 84
O=c1[nH]c(CC2CCCCC2)cc(O)c1-c1ccccc1  melting temperature (inhA; thermal shift; added: NADH ternary complex): 57.8 °C
CCC(=O)SCC[N+](C)(C)C  Km (BCHE; substrate; pH 8.0, 22 °C): 17 ± 6 µM
CN(C(=O)Cc1ccc(Cl)c(Cl)c1)[C@H](CN1CCCC1)c1ccccc1  log intrinsic relative activity (OPRK1; G protein activation, agonist; concentration not given; relative to: dynorphin A): 1.46 ± 0.1
CO[C@]12CC[C@@]3(C[C@@H]1[C@](C)(O)c1ccc(C(C)C)cc1)[C@H]1Cc4ccc(O)c5c4[C@@]3(CCN1CC1CC1)[C@H]2O5  stimulation (Oprm1; G protein activation, agonist; 10 µM; relative to: DAMGO): 13 ± 3%
CCCCCCCCCCC1=C(C)C(=O)C(OC)=C(OC)C1=O  Km (Dihydroorotate dehydrogenase (quinone) (Pyricularia oryzae, UniProt G4NFI3, M402V); substrate): 495 ± 52.2 µM
CC(C)C[C@@H]1NC(=O)[C@H](CCC(=O)O)NC(=O)[C@@H]2CCCN2C(=O)[C@H](Cc2c[nH]cn2)NC(=O)[C@H](CCCCCC(=O)O)NC(=O)[C@H](CC(C)C)NC(=O)[C@H](Cc2c[nH]cn2)NC(=O)[C@@H]2CSSC[C@H](NC(=O)CN)C(=O)N[C@@H](CSSC[C@@H](C(N)=O)NC1=O)C(=O)N[C@@H](CO)C(=O)N[C@@H](Cc1c[nH]cn1)C(=O)N1CCC[C@H]1C(=O)N[C@@H](C)C(=O)N2  selectivity ratio (Neuronal acetylcholine receptor; alpha3/beta2; relative to: IC50 α6/α3β2β3 over α3β2): ~39 and 39
O=C1CCCN1CC#CCN1CCCC1  Hill coefficient (Muscarinic acetylcholine receptor; binding, [3H]QNB competition; Xenopus laevis heart homogenate): 0.67
Cc1ccc2[nH]c(CNCCC[C@H]3CCOC3)cc(=O)c2c1  binding (DRD3 (Homo sapiens, UniProt P35462); 10 µM): inactive
CC(C)[C@H]1CC[C@@H](N2CCC(n3c(CO)cc4ccccc43)CC2)CC1  inhibition (SLC6A2 (Homo sapiens, UniProt P23975); radioligand binding; 10 µM): 65%
CCN1CCN(Cc2ccc(NC(=O)c3ccc(C)c(/C=C/c4cnc5[nH]ccc5c4OC)c3)cc2C(F)(F)F)CC1  log2 fold change (Nuclear receptor-binding protein (NRBP1, Homo sapiens, UniProt Q9UHY1); kinase-CDC37 interaction, inhibitor; human cells; 5 µM; relative to: vehicle): 0.285
CO[C@]12CC[C@@]3(C[C@@H]1[C@@](C)(O)c1ccncc1)[C@H]1Cc4ccc(O)c5c4[C@@]3(CCN1CC1CC1)[C@H]2O5  stimulation (OPRK1; G-protein activation, agonist; 10 µM; relative to: U-69593): -17 ± 7%
CC(C)C[C@@H]1NC(=O)[C@H](CCCNC(=N)N)NC(=O)[C@@H]2CCCN2C(=O)[C@H](Cc2c[nH]cn2)NC(=O)[C@H](CC(N)=O)NC(=O)[C@H](C(C)C)NC(=O)[C@H](CO)NC(=O)[C@@H]2CSSC[C@H](NC(=O)CN)C(=O)N[C@@H](CSSC[C@@H](C(N)=O)NC1=O)C(=O)N[C@@H](CO)C(=O)N[C@@H](Cc1c[nH]cn1)C(=O)N1CCC[C@H]1C(=O)N[C@@H](C)C(=O)N2  selectivity ratio (Neuronal acetylcholine receptor; alpha3/beta2; relative to: IC50 α6/α3β2β3 over α3β2): 0.1
CO[C@]12CC[C@@]3(C[C@@H]1[C@](C)(O)c1ccc(Cl)s1)[C@H]1Cc4ccc(O)c5c4[C@@]3(CCN1CC1CC1)[C@H]2O5  stimulation (OPRK1; G-protein activation, agonist; 10 µM; relative to: U-69593): 79 ± 6%
CCCCOP(=O)(OCCCC)OCCCC  Emax (PPARG (Homo sapiens, UniProt P37231); reporter gene, agonist; HEK293; relative to: rosiglitazone maximum): 23%
CCN(CC)Cc1cc(N)ccc1O  lowest significant inhibitory concentration (ACHE; irreversible inhibitor; free enzyme): > 500 µM
CO[C@]12CC[C@@]3(C[C@@H]1[C@](C)(O)c1cc(C)cc(C)c1)[C@H]1Cc4ccc(O)c5c4[C@@]3(CCN1CC1CC1)[C@H]2O5  stimulation (Oprm1; G protein activation, agonist; 10 µM; relative to: DAMGO): 24 ± 7%
CSCC[C@@H]1NC(=O)[C@H](CC(C)C)NC(=O)[C@H](CCCNC(=N)N)NC(=O)[C@H](CO)NC(=O)[C@@H]2CSSC[C@@H]3NC(=O)[C@H](CO)NC(=O)CNC(=O)[C@H]([C@@H](C)O)NC(=O)[C@H](CSSC[C@H](N)C(=O)N[C@@H](CCCCN)C(=O)NCC(=O)N[C@@H](CCCCN)C(=O)NCC(=O)N[C@@H](C)C(=O)N[C@@H](CCCCN)C(=O)N2)NC(=O)[C@H](CSSC[C@@H](C(N)=O)NC(=O)[C@H](CCCCN)NC(=O)CNC(=O)[C@H](CO)NC(=O)[C@H](CCCNC(=N)N)NC3=O)NC(=O)[C@H](CC(=O)O)NC(=O)[C@H](Cc2ccc(O)cc2)NC1=O  inhibition (Voltage-dependent P/Q-type calcium channel subunit alpha-1A (Homo sapiens, UniProt O00555); antagonist; HEK293; 10 µM): 27%
